Measured values collected from several papers.
Numbered parts are unrelated; each lists some results of a single study. Positions count from the first letter of the parent shown.

Sample 1
Target: CCNE1, cyclin fold, Cln2 fusion (human)
Method: yeast growth competition, sequencing
Medium: yeast
Setting: weak parent motif
Baseline: not given
Reading: higher = stronger binding
Quantity: normalised enrichment score
Starting sequence: SLBP docking peptide (human); ARYKRKLLINDFG
Change = ARYKRKLDINDFG [L8D]; result = 0.164
Change = ARYKRKKLINDFG [L7K]; result = -0.0988
Change = ARYFRKLLINDFG [K4F]; result = 0.822
Change = ARHKRKLLINDFG [Y3H]; result = 0.561
Change = ARYKRKLLINDWG [F12W]; result = 0.188
Change = ARYKVKLLINDFG [R5V]; result = 0.923
Change = AGYKRKLLINDFG [R2G]; result = 1.01
Change = AIYKRKLLINDFG [R2I]; result = 0.916

Sample 2
Target: Histone acetyltransferase KAT6A, winged helix 1, GST fusion (KAT6A, Homo sapiens, UniProt Q92794, residues 1-85)
Method: protein binding microarray
Molecule type: double-stranded DNA, one strand shown
Medium: in vitro
Tested at: not given
Setting: 8-mer, flanks averaged, mean of 2 arrays, mostly near background
Baseline: not given
Reading: higher = stronger binding
Quantity: E-score
Residues (chain): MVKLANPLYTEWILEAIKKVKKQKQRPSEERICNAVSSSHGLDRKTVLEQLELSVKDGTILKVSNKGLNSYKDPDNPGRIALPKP
Oligonucleotide = ATCCAGGC; result = -0.119
Oligonucleotide = GTGGAAGA; result = -0.192
Oligonucleotide = AGTGCGAG; result = -0.155
Oligonucleotide = GCATAGTA; result = 0.0189
Oligonucleotide = ATAGCCTG; result = -0.268
Oligonucleotide = GAGGTGGC; result = -0.147
Oligonucleotide = AAGCGGCT; result = 0.301
Oligonucleotide = GAAGTTCA; result = -0.095
Oligonucleotide = ATGGCATG; result = -0.0869
Oligonucleotide = CGATGCAG; result = -0.0612
Oligonucleotide = CTATTGAG; result = -0.151
Oligonucleotide = ATACTCCG; result = 0.108

Sample 3
Target: Sal-like protein 4, full length isoform B (SALL4, Homo sapiens, UniProt Q9UJQ4-2, residues 1-616)
Method: universal PBM
Molecule type: double-stranded DNA, one strand shown
Medium: in vitro
Tested at: not given
Setting: 8-mer, flanks averaged, mean of replicates
Reading: higher = stronger binding
Quantity: E-score
Residues (chain): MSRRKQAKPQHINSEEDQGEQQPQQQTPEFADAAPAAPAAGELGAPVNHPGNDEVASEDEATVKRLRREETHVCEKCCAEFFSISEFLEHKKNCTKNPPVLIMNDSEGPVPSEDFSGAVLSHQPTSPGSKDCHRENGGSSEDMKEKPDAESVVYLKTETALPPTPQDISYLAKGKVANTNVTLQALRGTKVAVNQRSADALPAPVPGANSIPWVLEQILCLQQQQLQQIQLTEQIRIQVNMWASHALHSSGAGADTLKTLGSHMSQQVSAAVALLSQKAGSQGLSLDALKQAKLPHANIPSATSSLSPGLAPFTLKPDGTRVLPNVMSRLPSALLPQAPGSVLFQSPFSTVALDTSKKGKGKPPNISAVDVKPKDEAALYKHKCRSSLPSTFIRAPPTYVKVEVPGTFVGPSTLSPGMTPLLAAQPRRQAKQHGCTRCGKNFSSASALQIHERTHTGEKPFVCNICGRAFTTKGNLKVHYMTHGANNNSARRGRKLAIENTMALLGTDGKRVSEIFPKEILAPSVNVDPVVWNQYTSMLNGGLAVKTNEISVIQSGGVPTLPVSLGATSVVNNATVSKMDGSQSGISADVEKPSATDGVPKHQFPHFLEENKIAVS
Oligonucleotide = CACCCTAC; result = -0.0464
Oligonucleotide = AGATAGGC; result = -0.0597
Oligonucleotide = ATTTTATC; result = 0.317
Oligonucleotide = AATCGTAG; result = 0.244
Oligonucleotide = CTATCCTC; result = 0.00353
Oligonucleotide = AGGCTCTA; result = -0.104
Oligonucleotide = TAACATTA; result = 0.375
Oligonucleotide = AATAGTAG; result = 0.248
Oligonucleotide = CATTCATC; result = 0.136
Oligonucleotide = AGAAAAGC; result = -0.0367
Oligonucleotide = ATTCGCGC; result = -0.122
Oligonucleotide = ATCGGCAG; result = -0.0993
Oligonucleotide = GTGTGACA; result = -0.0485

Further values, each from its own experiment
Substance = PhoQ, residues 284 288 289 292 302 303 SNSSNI; target = PhoP, residues 12 14 15 18 19 TQAIL (Escherichia coli, UniProt P23836); test = Sort-seq, item: YFP reporter; test system = E. coli; conditions = PhoQ-PhoP variant library, added: 10 µM Mg2+; how to read = baseline: high Mg2+ state, higher = stronger signaling; quantity = fold induction; result = 13.8

Some of these lines once more (sample 3):
Oligonucleotide = CATTCATC; result = 0.136
Oligonucleotide = AGGCTCTA; result = -0.104
